Assay results gathered from unrelated publications.
Each line is one published result; not all experiments were run side by side.
Organism: Leishmania donovani

SMILES	assay	test system	conditions	IC50
COc1cc(O)c(-c2ccc(OC)c3c(O)cc(C)c(-c4cc(-c5c(O)cc(OC)c6c5C[C@@H](C)N[C@@H]6C)c5cc(C)cc(OC)c5c4O)c23)c2c1[C@@H](C)N(C)[C@H](C)C2		MHOM/ET/67/L82, amastigotes		59.5 µM
Cc1cc2[nH]c(C(=O)Nc3ccccc3C)c(CN3CCOCC3)c2s1	parasite growth	THP-1	96 h, intracellular, amastigote	> 80 µM
CCOC(=O)CNC(=O)CN1C(=O)S/C(=C\c2ccc(OC)c(O)c2)C1=O	parasite growth, resazurin		promastigote	> 100 µM
CC(=O)Oc1ccc(Cn2ccc(=O)[nH]c2=O)cc1C1OC(c2cccc(Cl)c2)=NN1C(C)=O (stereo not drawn)	parasite growth, SYBR Green		amastigote	> 100 µM
CCOC(=O)CNC(=O)CN1C(=O)S/C(=C\c2ccc(C)cc2)C1=O	parasite growth, resazurin		promastigote	91.4 µM
CC(=O)Oc1ccc(Cn2cc(C)c(=O)[nH]c2=O)cc1C1OC(c2ccccc2)=NN1C(C)=O (stereo not drawn)	parasite growth, SYBR Green		amastigote	> 100 µM
CCOC(=O)C(C)NC(=O)CN1C(=O)N/C(=C\c2ccc(C)cc2)C1=O (stereo not drawn)	parasite growth		72 h, intracellular, amastigote	> 10 µM
CCn1cc(C(=O)NCCNCCO)c(=O)c2cc(OCc3ccc(C(C)(C)C)cc3)c(Cl)cc21		Bob promastigotes	120 h	< 3 µM
CCOC(=O)C(NC(=O)CN1C(=O)/C(=C/c2ccc([N+](=O)[O-])cc2)SC1=S)C(C)C (stereo not drawn)	parasite growth		24 h, intracellular, amastigote	> 10 µM
CC/C(=C\c1ccc(OCC(=O)NC(C(=O)N2CCOCC2)c2ccccc2)cc1)[N+](=O)[O-] (stereo not drawn)	parasite growth, MTT		72 h, promastigote	14.4 µM
COc1cc(O)c(-c2ccc(OC)c3c(OC)cc(C)cc23)c2c1[C@H](C)N(C)[C@H](C)C2		MHOM/ET/67/L82, amastigotes		> 100 µM
COc1ccc(CCNC(=O)C(=O)[C@H](Cc2ccccc2)NC(=O)c2oc3cc(O)ccc3c(=O)c2C)cc1	parasite growth		72 h, promastigote	10 µM
CCCCCCCCCC1CC2CCCC3CC(CCCCCCCCC)NC(=N1)N23 (stereo not drawn)	parasite growth, Alamar Blue	promastigotes		2.78 µM
COc1ccc(CCNC(=O)C(=O)[C@H](Cc2ccccc2)NC(=O)c2oc3cc(OC)c(OC)cc3c(=O)c2C)cc1	parasite growth		72 h, promastigote	12 µM
CC(C)OC(=O)/C=C/c1ccc(O)c([N+](=O)[O-])c1	parasite growth		70 h, amastigote	1.7 µM
CC(=O)Oc1ccc(Cn2cc(F)c(=O)[nH]c2=O)cc1C1OC(c2ccccc2)=NN1C(C)=O (stereo not drawn)	parasite growth, SYBR Green	RAW264.7	intracellular, amastigote	> 100 µM
Cc1nc(C(=O)N2CCC[C@H]2C(=O)N[C@@H](CCC(=O)O)C(=O)N[C@@H](CC(C)C)C(=O)NC(C)(C)C(=O)N[C@@H](CC(C)C)C(=O)N[C@@H](CC(C)C)C(=O)NC(C)(C)C(=O)NC(C)(C)C(=O)NCCC(=O)NC2(CN(C)C)CCC2)co1	resazurin	MHOM/ET/67/L-82 axenic amastigotes		> 8.56 µM

SMILES	assay	test system	conditions	IC50
O=C1C(O)=C(I)C(=O)c2ccccc21	parasite growth, SYBR Green		amastigote	< 10 µM
CC(=O)Oc1ccc(Cn2cc(F)c(=O)[nH]c2=O)cc1C1OC(c2cccc(Cl)c2)=NN1C(C)=O (stereo not drawn)	parasite growth, SYBR Green		amastigote	> 100 µM
CCOC(=O)C(NC(=O)CN1C(=O)/C(=C/c2ccc3c(c2)OCO3)SC1=S)C(C)C (stereo not drawn)	parasite growth, resazurin		promastigote	> 100 µM
CC/C(=C\c1ccc(OCC(=O)NC(C(=O)N2CCSCC2)c2ccccc2)cc1)[N+](=O)[O-] (stereo not drawn)	parasite growth, MTT		72 h, promastigote	1.55 µM
CCCCCCCCCCCCCCCCC1CC(=O)NCCCN(C)CCCCN(C)CCCN1C (stereo not drawn)	Alamar blue		72 h, 26 °C, promastigotes	1.2 µg/mL
CC(=O)Oc1ccc(Cn2ccc(=O)[nH]c2=O)cc1C1OC(c2ccc(Cl)cc2)=NN1C(C)=O (stereo not drawn)	parasite growth, SYBR Green		amastigote	> 100 µM
CCOC(=O)C(CC)NC(=O)CN1C(=O)S/C(=C\c2ccc([N+](=O)[O-])cc2)C1=O (stereo not drawn)	parasite growth		72 h, intracellular, amastigote	> 10 µM
CC(=O)Oc1ccc(Cn2cc(C)c(=O)[nH]c2=O)cc1C1OC(c2cccc(Cl)c2)=NN1C(C)=O (stereo not drawn)	parasite growth, SYBR Green	RAW264.7	intracellular, amastigote	> 100 µM
CCn1cc(C(=O)NCCNCCO)c(=O)c2cc(OC)c(OCc3cccc(F)c3)cc21		Bob promastigotes	120 h	> 20 µM
CCOC(=O)C(CC)NC(=O)CN1C(=O)S/C(=C\c2ccc(C)cc2)C1=O (stereo not drawn)	parasite growth, resazurin		promastigote	9.98 µM
O=C(NCCNCCO)c1cn(Cc2ccc(F)cc2)c2cc(Cl)c(OCc3ccc(C(F)(F)F)cc3)cc2c1=O		Bob promastigotes	120 h	> 20 µM
CC(C)(C)OC(=O)/C=C/c1ccc(O)c([N+](=O)[O-])c1	parasite growth		70 h, amastigote	1.3 µM
CC(=O)Oc1ccc(Cn2cc(F)c(=O)[nH]c2=O)cc1C1OC(c2ccc(Cl)cc2)=NN1C(C)=O (stereo not drawn)	parasite growth, SYBR Green		amastigote	56.3 µM
CCOC(=O)C(NC(=O)CN1C(=O)N/C(=C\c2ccc3c(c2)OCO3)C1=O)C(C)C (stereo not drawn)	parasite growth		72 h, intracellular, amastigote	> 10 µM
COC(=O)/C=C/c1ccc(O)c([N+](=O)[O-])c1	parasite growth		70 h, amastigote	1.2 µM
CC(=O)Oc1ccc(Cn2cc(C)c(=O)[nH]c2=O)cc1C1OC(c2ccc(Cl)cc2)=NN1C(C)=O (stereo not drawn)	parasite growth, SYBR Green	RAW264.7	intracellular, amastigote	> 100 µM

For quick reference, copied from above:
SMILES	assay	test system	conditions	IC50
CCOC(=O)CNC(=O)CN1C(=O)S/C(=C\c2ccc(C)cc2)C1=O	parasite growth, resazurin		promastigote	91.4 µM
CC/C(=C\c1ccc(OCC(=O)NC(C(=O)N2CCSCC2)c2ccccc2)cc1)[N+](=O)[O-] (stereo not drawn)	parasite growth, MTT		72 h, promastigote	1.55 µM
O=C1C(O)=C(I)C(=O)c2ccccc21	parasite growth, SYBR Green		amastigote	< 10 µM
